Results pooled from the literature.
Parts stem from different laboratories: compare values within a part only.

Study 1 — technique: universal PBM; molecule type: double-stranded DNA, one strand shown; medium: in vitro; tested at: 600 nM; reading: higher = stronger binding
Target: Sal-like protein 4, full length isoform A (SALL4, Homo sapiens, UniProt Q9UJQ4, residues 1-1053)
Chain of UniProt Q9UJQ4 (whole entry, looked up): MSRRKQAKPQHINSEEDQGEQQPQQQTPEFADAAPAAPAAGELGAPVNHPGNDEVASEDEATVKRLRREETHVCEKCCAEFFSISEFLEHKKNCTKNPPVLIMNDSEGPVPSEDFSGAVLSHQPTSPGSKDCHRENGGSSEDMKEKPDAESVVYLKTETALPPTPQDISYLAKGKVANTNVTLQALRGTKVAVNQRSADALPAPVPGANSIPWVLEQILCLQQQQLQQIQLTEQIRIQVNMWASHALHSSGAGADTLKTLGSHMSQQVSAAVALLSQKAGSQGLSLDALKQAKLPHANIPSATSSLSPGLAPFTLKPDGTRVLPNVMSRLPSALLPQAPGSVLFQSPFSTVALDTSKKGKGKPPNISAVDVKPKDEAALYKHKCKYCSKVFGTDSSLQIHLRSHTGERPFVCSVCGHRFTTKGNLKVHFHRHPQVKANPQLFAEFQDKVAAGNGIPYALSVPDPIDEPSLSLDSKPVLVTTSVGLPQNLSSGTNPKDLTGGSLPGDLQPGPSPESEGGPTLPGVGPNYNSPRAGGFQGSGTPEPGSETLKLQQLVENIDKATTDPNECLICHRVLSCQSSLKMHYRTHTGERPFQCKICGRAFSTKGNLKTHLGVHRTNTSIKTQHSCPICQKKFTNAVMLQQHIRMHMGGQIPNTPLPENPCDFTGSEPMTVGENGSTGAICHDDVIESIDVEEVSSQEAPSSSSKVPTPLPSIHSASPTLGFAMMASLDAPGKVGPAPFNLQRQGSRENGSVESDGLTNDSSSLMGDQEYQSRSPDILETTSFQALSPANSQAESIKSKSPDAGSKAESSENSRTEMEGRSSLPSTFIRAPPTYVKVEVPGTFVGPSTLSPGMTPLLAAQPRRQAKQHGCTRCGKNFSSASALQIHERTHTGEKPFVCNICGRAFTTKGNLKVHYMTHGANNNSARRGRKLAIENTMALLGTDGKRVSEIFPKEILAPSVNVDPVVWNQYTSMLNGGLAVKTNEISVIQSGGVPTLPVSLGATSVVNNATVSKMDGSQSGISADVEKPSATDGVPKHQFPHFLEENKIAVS
Notes: 8-mer, flanks averaged, mean of replicates
Strand	E-score
CGTTGGAG	-0.212
ACCCTGTA	-0.00087
CACACTGG	-0.257
AACATGCG	0.0611
ATGCGACA	0.0455
CCGTAACA	0.122
CCTGACTC	-0.187
AAAATTGA	0.302
AGTTACTA	0.168

Study 2 — technique: RNA Bind-n-Seq; molecule type: RNA; medium: in vitro; tested at: 365 nM; reference: no-protein control; reading: higher = stronger binding
Target: RNA binding protein fox-1 homolog 2, RRM domain, GST-SBP tag (RBFOX2, Homo sapiens, UniProt O43251-10, residues 100-194)
Notes: natural RNA segment, single round, ends assumed
Shared flanks, not repeated: GGGAGUUCUACAGUCCGACGAUC … UGGAAUUCUCGGGUGCCAA
Target sequence (chain): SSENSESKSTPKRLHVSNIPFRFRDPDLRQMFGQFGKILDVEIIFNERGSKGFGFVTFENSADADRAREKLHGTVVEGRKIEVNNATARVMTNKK
Strand	RBNS enrichment (R)
UUUCUCUGUGUAGCCCUGGCCGUCCUGGAACUCACUUUGUAGAUCAGGCUGGCCUCGAACUCAGAAAUCGGCCUGCCUCUGCCUCCCGAGUGCUGGGAUUAAAGGCGUGC	0.277
GAGAUUUGUCUUUUUCUCCUUUGGCUGUGUGUUGUCCAGGGAUAUAUAUUUCCUAAAAUCUUUUUAAAGUGAAUUUAUAUGUGCACAUAUGUGUGUGUAGGGGGAGGAUA	1.11
CCUCCUUGAGACACAGAUGCCUGUGUGAGUCUCCGUUGAUACAAUUCUGAACCCCUCAGGUUCUCUGAAAGGGCACAGACCAUGGGCGUGAACAUUGUGCCGUACCUGAG	4.61
GGUCGCCGCCGCCGCCGCCGCCGUCAUCCUCGCCUCUCGCUUCCCUCUGGGAGCUGCGCGCGCUUCACUCACCUUCCGCUUCACUCGCCUUCCACGCUUGCUCCAGAGAC	0.481
AUUGGCUUAACAGAAACAGUCUGUAAAAACCUAACAGUGGUGCAAUCAUGUUGUCUGUGUUGUGUUAUGUGAGAAUUUUCUCCUAAGUCAUGCAGGUAAUGACAAUAUAC	0.343
GCUUGCCACAAUGAUUCCGUGUUUUUACAGGGCAUUCAACUGCUGCAAAGGUUAACAUAUAAUGCCAAAUUUUUCCAUUCUGGUGCCCAUAUAGAUGACUUAAUUACAUU	0.389

Study 3 — technique: protein binding microarray; molecule type: double-stranded DNA, one strand shown; medium: in vitro; tested at: not given; reference: not given; reading: higher = stronger binding
Target: Histone acetyltransferase KAT6A, winged helix 1, GST fusion (KAT6A, Homo sapiens, UniProt Q92794, residues 1-85)
Notes: 8-mer, flanks averaged, mean of 2 arrays, mostly near background
Construct (chain): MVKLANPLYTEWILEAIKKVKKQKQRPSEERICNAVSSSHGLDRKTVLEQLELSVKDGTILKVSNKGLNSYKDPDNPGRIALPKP
Strand	E-score
CCGTATAG	0.175
CAGGTGAG	-0.263
AGTCTACC	0.0872
AAACGGTA	0.19
CCCGTTTA	0.154
GATTATTA	-0.0334
TTCGGAAA	0.0852
CGAGCAAA	-0.179

Other studies, line by line
Substance	target	assay	test system	setting	how to read	endpoint	value
PhoQ, residues 284 288 289 292 302 303 ALAMYF	PhoP, residues 12 14 15 18 19 NMSFL (Escherichia coli, UniProt P23836)	Sort-seq, item: YFP reporter	E. coli	PhoQ-PhoP variant library, added: 10 µM Mg2+	reference: high Mg2+ state, higher = stronger signaling	fold induction	1.94

Excerpt of the above (study 2):
Strand	RBNS enrichment (R)
CCUCCUUGAGACACAGAUGCCUGUGUGAGUCUCCGUUGAUACAAUUCUGAACCCCUCAGGUUCUCUGAAAGGGCACAGACCAUGGGCGUGAACAUUGUGCCGUACCUGAG	4.61
GGUCGCCGCCGCCGCCGCCGCCGUCAUCCUCGCCUCUCGCUUCCCUCUGGGAGCUGCGCGCGCUUCACUCACCUUCCGCUUCACUCGCCUUCCACGCUUGCUCCAGAGAC	0.481
AUUGGCUUAACAGAAACAGUCUGUAAAAACCUAACAGUGGUGCAAUCAUGUUGUCUGUGUUGUGUUAUGUGAGAAUUUUCUCCUAAGUCAUGCAGGUAAUGACAAUAUAC	0.343
